Measured values collected from several papers.
Every numbered part comes from another study and shows a few of its results, in no order. Substitutions count along the parent as printed.

Series 1 — technique: protein-binding microarray; molecule type: double-stranded DNA, one strand shown; matrix: in vitro; tested at: 250 nM; setting: 60-bp whole probe; together with: salmon DNA 0.4 mg/ml; relative to: random background probes; direction: higher = stronger binding; constant ends, left off below: GCCTAGCAC … GTCTTGATTCGCTTGACGCTGCTG
Target: Interferon regulatory factor 7, full length, phosphomimetic (IRF7, Homo sapiens, UniProt Q92985, residues 1-503, S101K/S471D/S472D/S475D/S476D/S477D/S483D/S484D/S487D)
Chain of UniProt Q92985 (whole entry, unmodified, looked up): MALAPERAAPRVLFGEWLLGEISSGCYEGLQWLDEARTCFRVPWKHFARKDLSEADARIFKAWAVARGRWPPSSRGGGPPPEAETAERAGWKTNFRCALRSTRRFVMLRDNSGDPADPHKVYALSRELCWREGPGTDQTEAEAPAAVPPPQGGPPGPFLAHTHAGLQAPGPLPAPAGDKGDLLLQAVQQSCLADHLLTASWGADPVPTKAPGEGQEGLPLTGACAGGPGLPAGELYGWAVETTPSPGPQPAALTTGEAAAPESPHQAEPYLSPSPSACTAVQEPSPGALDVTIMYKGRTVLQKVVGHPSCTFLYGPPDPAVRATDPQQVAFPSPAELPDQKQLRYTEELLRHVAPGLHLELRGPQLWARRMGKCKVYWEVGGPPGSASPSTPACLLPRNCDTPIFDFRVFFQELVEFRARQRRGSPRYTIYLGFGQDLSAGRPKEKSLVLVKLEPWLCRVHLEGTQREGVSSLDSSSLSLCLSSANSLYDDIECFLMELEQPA
Oligonucleotide | log fluorescence
GACGGTATCCTAGTGCTGACGTGCTAG | -0.373 z-score
TCATTTCTGGTTCCCATACTGTGCTAG | 1.9 z-score
CCTCTGCTCCTCTTTTTTTGGGTGCTA | -0.126 z-score
TTAGGACTGCGTATCGGTTAGTGCTAG | 0.00959 z-score
GACGATTTCGGGCTTCGAGACGTGCTA | 0.258 z-score
TCACATATAATTTTGTCACTGTGCTAG | 0.382 z-score
GACGTTATCGGGACTGGGGACGTGCTA | -0.107 z-score
ATAGATATCGGGACTGGATTAGTGCTA | -0.126 z-score
TTTATTTTTACATTATTACCGTGCTAG | 1.07 z-score
GACGATTTTAGTATCGAGACGTGCTAG | 0.644 z-score
TTAGATTTCAGACTGGATGAGTGCTAG | -0.014 z-score

Series 2 — technique: protein binding microarray; molecule type: double-stranded DNA, one strand shown; matrix: in vitro; tested at: not given; relative to: not given; direction: higher = stronger binding
Target: Histone acetyltransferase KAT6A, winged helix 1, GST fusion (KAT6A, Homo sapiens, UniProt Q92794, residues 1-85)
Setting: 8-mer, flanks averaged, mean of 2 arrays, mostly near background
Target sequence (chain): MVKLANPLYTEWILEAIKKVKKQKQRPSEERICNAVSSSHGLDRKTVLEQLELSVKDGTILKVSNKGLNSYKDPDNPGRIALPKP
Oligonucleotide | E-score
AACAACGG | 0.117
CGAGACGA | -0.0358
AATAGGAT | 0.0226
ACTAGCAG | -0.191
CCGCCCGG | 0.417
AAGAAGGC | 0.0536
TAGAAGCA | -0.314
ACTAGACC | -0.123
TCAGTACA | -0.247
TCTGTTCA | -0.157
GAAGATAA | 0.028
AAGGCTCG | -0.0931
ACTAGTTG | -0.228
TGTATTAA | -0.058
ACGCTGTG | -0.0107
ATACCCTC | -0.0313
AATAACGT | 0.0456
AAAATACG | -0.0446
TAAGTGTA | -0.0907
CATGCAGC | 0.124
GACCGCTA | 0.248
CCAAGTGA | -0.165
CGGTGCCC | 0.25
GCACGAAA | -0.0716
ACGGTCAT | 0.0649

Series 3 — technique: DHFR PCA, deep sequencing; matrix: yeast; together with: (+)-ABA 0 µM; relative to: wild-type fitted maximum; direction: higher = stronger binding
Target: ABI1, truncated, D143A, DHFR fusion (Arabidopsis thaliana)
Setting: methotrexate growth selection, single substitutions
Starting sequence: PYL1, truncated, DHFR fusion (Arabidopsis thaliana); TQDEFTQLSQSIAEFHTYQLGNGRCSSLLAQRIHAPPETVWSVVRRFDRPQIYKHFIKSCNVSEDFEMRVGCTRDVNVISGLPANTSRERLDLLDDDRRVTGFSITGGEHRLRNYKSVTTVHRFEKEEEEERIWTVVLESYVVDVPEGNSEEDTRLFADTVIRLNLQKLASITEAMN; partner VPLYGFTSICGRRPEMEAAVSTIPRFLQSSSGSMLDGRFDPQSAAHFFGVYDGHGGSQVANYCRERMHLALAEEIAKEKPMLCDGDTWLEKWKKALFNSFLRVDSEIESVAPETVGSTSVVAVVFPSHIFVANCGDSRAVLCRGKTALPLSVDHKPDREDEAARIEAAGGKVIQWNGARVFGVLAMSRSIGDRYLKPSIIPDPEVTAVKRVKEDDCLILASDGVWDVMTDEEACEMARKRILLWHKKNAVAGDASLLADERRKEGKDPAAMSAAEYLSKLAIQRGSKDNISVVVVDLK
Substitution | relative binding score
R90I | 1.84%
R88T | 40.2%
A170P | -5.38%
G102C | -3.9%
M68K | 0.499%
R88L | 5.73%
T101V | 35.1%
R90M | 9.11%
I57S | 1.71%
F5K | 1.92%
F157K | 0.705%
E14C | 2.33%
H16A | -0.719%

Series 4 — technique: universal PBM; molecule type: double-stranded DNA, one strand shown; matrix: in vitro; tested at: not given; direction: higher = stronger binding
Target: Sal-like protein 4, full length isoform B (SALL4, Homo sapiens, UniProt Q9UJQ4-2, residues 1-616)
Setting: 8-mer, flanks averaged, mean of replicates
Oligonucleotide | E-score
CTTGGCAA | -0.0749
AGATCATA | 0.287
CTTTGTTC | 0.0788
ACAAACCA | 0.0117
GATTCCCC | -0.228
ATTTGAAG | 0.165
AGGAGATC | -0.162
AATAGGAA | 0.277
CTCACCGA | -0.106
TAGCAAGA | 0.0868
CACTTGGC | -0.132
ATTTGAGC | 0.0754

Series 5 — technique: RNA Bind-n-Seq; molecule type: RNA; matrix: in vitro; tested at: 1 µM; setting: whole 134-nt RNA, ends assumed; together with: 150 mM KCl; relative to: input library; direction: higher = stronger binding
Target: Ras GTPase-activating protein-binding protein 1, RRM domain (G3BP1, Homo sapiens, UniProt Q13283)
Chain of UniProt Q13283 (whole entry, looked up): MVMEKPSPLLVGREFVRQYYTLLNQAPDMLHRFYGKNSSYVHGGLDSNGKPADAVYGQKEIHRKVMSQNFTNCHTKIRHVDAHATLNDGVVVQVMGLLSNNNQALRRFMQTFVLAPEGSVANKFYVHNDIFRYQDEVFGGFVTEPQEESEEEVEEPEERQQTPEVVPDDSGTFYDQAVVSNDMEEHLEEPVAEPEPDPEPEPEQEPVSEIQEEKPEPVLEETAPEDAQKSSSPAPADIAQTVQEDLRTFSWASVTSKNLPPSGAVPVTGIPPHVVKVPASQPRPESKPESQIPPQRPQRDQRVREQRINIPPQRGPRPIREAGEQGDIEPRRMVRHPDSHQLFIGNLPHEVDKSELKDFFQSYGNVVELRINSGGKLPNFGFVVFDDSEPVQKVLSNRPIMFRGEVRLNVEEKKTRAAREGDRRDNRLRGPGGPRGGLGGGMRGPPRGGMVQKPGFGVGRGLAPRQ
Constant ends, left off below: GGGAGUUCUACAGUCCGACGAUC … UGGAAUUCUCGGGUGUCAAGG
Oligonucleotide | log2 enrichment
GUCCUGUGCUACACAUCGUAUGUACCGAAUCGGGGUUUGGGGAAAAAAAGGGGAGGGGAAAGUAUUAUGUUACGCCGUUCGGAUCUGCAC | 0.962
UGGACCCGGAGCUGAUGCAGAAGUUCAGCUGCCUGGGCACCACCGACAAGGACGUGCUCAUCUCCGAGUUCCAGAGGCUGCUCGGCUUCC | 0.0407
UGCAGUCGAGCCAGCACCUGUUUCUGGACCUGCCUAAGGUAAGUGAGCUUUUCUCUCAACCUAGUUUUCAGGAGGCCUCUUCUGUCCCCU | -0.113
CUCAAGUCCUGUGCUACACAUCGUAUGUACCGAAUCGGGAGGGAAAGGGAGGGAAAGUAUUAUGUUACGCCGUUCGGAUCUGCACUUCCA | 0.738
UCCUGUGCUACACAUCGUAUGUACCGAAUCGGGGAAAAAGGGGAAAAAGGGGAAAGGGGAAAGUAUUAUGUUACGCCGUUCGGAUCUGCA | 1.14
CACAGACAACACGCACCCACAAAAACACAGAGGGAAGGGGUUGGGAUGGGGACAGGGUGCACAGCAGGGCGGGGUAGGACCCCAGCCCCU | -0.234
CACAGACAACACGCACCCACACAGACACAGAGGGAAGGGUUUGGGAUGGGGACAGGGUGCACAGCAGGGCGGGGUAGGACCCCAGCCCCU | -0.103
CAAGUCCUGUGCUACACAUCGUAUGUACCGAAUCGGGGAAAGGGGAGGGGAGGGGAAAGUAUUAUGUUACGCCGUUCGGAUCUGCACUUC | 1.18
CAAGUCCUGUGCUACACAUCGUAUGUACCGAAUCGGUUUUGGUUUUGGGGUUUUGGAAAGUAUUAUGUUACGCCGUUCGGAUCUGCACUU | -0.427
UAACUUUAGAGGAGGAUCUGAUGGAUAUGGCAGUGGACGGGGAUUUGGGGAUGGCUAUAAUGGGUAUGGAGGAGGACCUGGAGGUGGCAA | -0.513

Series 6 — target: CCNB2, cyclin fold, Cln2 fusion (human); technique: yeast growth competition, sequencing; matrix: yeast; setting: weak parent motif; relative to: not given; direction: higher = stronger binding
Starting sequence: RB1 docking peptide (human); PKPLKKLRFDIEG
Substitution | normalised enrichment score
PKPLKRLRFDIEG [K6R] | 0.195
PKPLKKLNFDIEG [R8N] | -0.153
PKPLKKLRFDIYG [E12Y] | 0.604
PNPLKKLRFDIEG [K2N] | 0.654
PEPLKKLRFDIEG [K2E] | 0.0284
PKPSKKLRFDIEG [L4S] | 0.396
KKPLKKLRFDIEG [P1K] | 0.958
PKPLKKLRFDIIG [E12I] | 0.788
PKPLKKLRNDIEG [F9N] | 0.877

Series 7 — technique: RNA Bind-n-Seq; molecule type: RNA; matrix: in vitro; tested at: 365 nM; relative to: no-protein control; direction: higher = stronger binding
Target: RNA binding protein fox-1 homolog 2, RRM domain, GST-SBP tag (RBFOX2, Homo sapiens, UniProt O43251-10, residues 100-194)
Setting: natural RNA segment, single round, ends assumed
Constant ends, left off below: GGGAGUUCUACAGUCCGACGAUC … UGGAAUUCUCGGGUGCCAA
Residues (chain): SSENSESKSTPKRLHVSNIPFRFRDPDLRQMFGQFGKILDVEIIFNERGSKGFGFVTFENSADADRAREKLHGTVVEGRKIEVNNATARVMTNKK
Oligonucleotide | RBNS enrichment (R)
UCACGGGGAACACACAGCGUUAAGUGUCUUUCCUUUAUUUUUUAAAGAAUCAAUAGCAGCAUCUAAUCUCCCAGGGCUCCCUCCCACCAGCACCUGUGGUGGCUGCAAGU | 1.13
CAGAAUUGAGAAGAACGUGCCAAAUGAGAAUCAAUUAGGUGGAUUUUUGGCUGUCAUUUCAAAAGUGGAAUAAAUUUAUUAAUUUAGUAGUACUAAAUGGUAUCCUUAGA | 0.443
UGAUACAGGAUGAACUUGGGAUGUUUGAACCCUGGACAUUCCAAAUAAAGAAUAGGCCCCUGCCUGGCUCCUGGGAGAUAACCUCUAAGCCAUUAGAAUAUCUUGCCUGA | 0.329
CACAUUUGUACAUAUAUCUAAUGUUUUCAAGUGCCUUACUUGUUUAAACUCUGACUUCAAAGGUUUUUGGGGAAAGAUAGGUUUACCUCACAGUUAUGUUUCCAUUGUAA | 0.613
CAGACAAGAAGCUUCCUGAAAUGGACAUUGAUUGUUCCAACACUUGUUUCUAUUAAAACAGACUAUUAUAAAGCUUUAAGUUGUCAACUUUGUUCUAAAUAUCAACUAGC | 0.403
UUUGUGCCAACACACGGAGUCAUUCUGGCUCUCUGCUGAGGCCCCUGUUUUCUGGCAGGUGCCCUCCUUGGAAACUGGUUUUGGCUCUGAUCAGCGGUUCUUUUUGCAGC | 0.268
AAAGUCUAAAUUGGAGAUCCAGUUUUAGAAGUGCUUUCUGGGAAGCAUUUAAUGGGAUUAGCUGUAGUCACUGCUUAUGGGAAGAACCUCAGAUCAGCCCCUUAAAAUGA | 0.567
GCCCUCUGCUUUACUCUCAUGUGGCAAACGUGCGGCUCGUGGUGUGAGUGCCAGAAGCUGCCUCCGUGGUUUGGUCACCGUGUGCAUCGCACCGUGCUGUAAAUGUGGCA | 1.07
AAUGACGUUUCUGAGAACCAUGUUCUUUUUAUACUAAAAUCUGGGGAUGGGAGGGCUCAUUUGUUGAUAAAUAGCACUAUUUUCCCACACCUCAGCCUCCUGUCCCCGUC | 0.464
UAAUGAGUUAUUUUACUUUUUUUCAUAUUAGGCCUUUGAAAUUCAGUGUGUAUUAAACACAUCUCAAUUCAAACCAUCACCAUAUUUCAAGUCUUUGUAGCCAAAUGUGA | 0.442
UUGACAAUGUCAGCUCCACUUUAGAAAUUUUCAAUAACCAGAUGAGAAAAAAAUUAAGAAAUUGCUCAAGGGAAACAUUUGUAAAUGGAUUUGAAAGAUUGAGCCAAAUU | 0.698
UCCUAAGUUUUGGGGUUACCCUAUCUGCUUUGAGAGACAAAUACAAAAGCUAAAUGGAAGAGAUUCUUCUAACCUGUCCUUAUGGUAACUAAAUGCCGUCUUACAUUGAG | 0.251
